Published values pooled from the literature.
Parts stem from different laboratories: compare values within a part only. Changes are numbered by the printed parent chain.

Sample 1 — technique: protein binding microarray; molecule type: double-stranded DNA, one strand shown; medium: in vitro; tested at: not given; relative to: not given; direction: higher = stronger binding
Target: Histone acetyltransferase KAT6A, winged helix 1, GST fusion (KAT6A, Homo sapiens, UniProt Q92794, residues 1-85)
Notes: 8-mer, flanks averaged, mean of 2 arrays, mostly near background
Target sequence (chain): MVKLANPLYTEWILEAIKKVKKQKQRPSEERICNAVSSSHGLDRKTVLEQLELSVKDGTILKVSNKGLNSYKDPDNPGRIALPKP
For `ATACTACA`, the E-score was -0.123.
With `CGGCCTGC` the E-score was 0.289.
`CGTTTGAC` gave an E-score of 0.11.
`ATCTATTC` gave an E-score of -0.136.
The E-score of `AAACTGTT` is reported as -0.0896.
For `CCCCGTTA`, the E-score was 0.163.

Sample 2 — technique: RNAcompete; molecule type: RNA; medium: in vitro; tested at: 20 nM; notes: 7-mer, probes averaged, single round; relative to: mean of 7-mers; direction: higher = stronger binding
Target: PABPC1L2, full length, GST fusion (mouse, UniProt A0ABA7IW68)
Residues (chain): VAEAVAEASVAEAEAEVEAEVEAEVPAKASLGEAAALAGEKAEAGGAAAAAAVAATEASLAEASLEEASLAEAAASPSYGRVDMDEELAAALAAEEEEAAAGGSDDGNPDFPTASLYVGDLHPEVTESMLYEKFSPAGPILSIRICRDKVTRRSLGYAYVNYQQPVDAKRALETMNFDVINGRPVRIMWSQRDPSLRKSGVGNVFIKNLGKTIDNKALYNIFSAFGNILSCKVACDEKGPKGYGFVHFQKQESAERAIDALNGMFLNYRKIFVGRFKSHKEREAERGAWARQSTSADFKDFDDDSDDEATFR
With `UUCCUUG` the 7-mer Z-score was -0.394.
`AUAUGUG` has a 7-mer Z-score of -0.0935.
With `GAAAACG` the 7-mer Z-score was 1.83.
For `GCUGGUG`, the 7-mer Z-score was -0.079.
`CGGACCC` has a 7-mer Z-score of -0.228.
For `CAUAUAU`, the 7-mer Z-score was -0.209.

Sample 3 — technique: DHFR PCA, deep sequencing; medium: yeast; together with: (+)-ABA 710 µM; relative to: wild-type fitted maximum; direction: higher = stronger binding
Target: ABI1, truncated, D143A, DHFR fusion (Arabidopsis thaliana)
Notes: methotrexate growth selection, single substitutions
Parent: PYL1, truncated, DHFR fusion (Arabidopsis thaliana); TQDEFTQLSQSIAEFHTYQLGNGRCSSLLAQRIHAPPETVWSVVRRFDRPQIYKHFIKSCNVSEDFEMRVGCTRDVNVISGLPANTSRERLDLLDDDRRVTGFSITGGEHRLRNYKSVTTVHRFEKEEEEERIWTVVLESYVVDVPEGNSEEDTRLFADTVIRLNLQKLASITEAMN
For `V137Y`, “relative binding score” read 21%.
For `T119S`, “relative binding score” read 89.9%.
Under “relative binding score”, `D65C` is recorded as 97.2%.
`Q167S` — result for “relative binding score”: 102%.
`E89F` — result for “relative binding score”: 8.02%.

Other studies, line by line
`PhoQ, residues 284 288 289 292 302 303 HSSMNL` has a fold induction of 3.19 (PhoP, residues 12 14 15 18 19 NQGLL (Escherichia coli, UniProt P23836); Sort-seq, measured: YFP reporter; E. coli; PhoQ-PhoP variant library, together with: 10 µM Mg2+; relative to: high Mg2+ state, higher = stronger signaling).

A few entries again (sample 2):
`CGGACCC` has a 7-mer Z-score of -0.228.
For `CAUAUAU`, the 7-mer Z-score was -0.209.
For `GCUGGUG`, the 7-mer Z-score was -0.079.
